Results gathered from unrelated publications.
Lines come from different studies, so protocols differ. “And” joins repeats or separate records; there may be more than shown. ± marks the error that the study gave.
GABA-A receptor; alpha-1/beta-3/gamma-2: GABA-A receptor; alpha-1/beta-3/gamma-2 (Homo sapiens, UniProt P14867+P18507+P28472)
UniProt P14867, sequence (whole entry, unmodified, looked up): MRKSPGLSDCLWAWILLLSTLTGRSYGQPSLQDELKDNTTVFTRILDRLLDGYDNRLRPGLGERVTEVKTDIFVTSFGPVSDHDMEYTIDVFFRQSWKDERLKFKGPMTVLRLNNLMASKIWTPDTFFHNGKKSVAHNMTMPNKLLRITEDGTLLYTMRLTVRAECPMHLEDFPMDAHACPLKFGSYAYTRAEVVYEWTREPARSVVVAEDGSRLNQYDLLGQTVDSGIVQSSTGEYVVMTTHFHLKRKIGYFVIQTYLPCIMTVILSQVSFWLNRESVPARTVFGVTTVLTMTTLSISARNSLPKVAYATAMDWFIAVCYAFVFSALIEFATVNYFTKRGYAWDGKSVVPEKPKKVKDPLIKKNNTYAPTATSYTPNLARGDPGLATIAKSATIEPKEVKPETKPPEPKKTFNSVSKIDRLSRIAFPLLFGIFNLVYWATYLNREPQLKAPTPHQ
UniProt P28472, sequence (whole entry, unmodified, looked up): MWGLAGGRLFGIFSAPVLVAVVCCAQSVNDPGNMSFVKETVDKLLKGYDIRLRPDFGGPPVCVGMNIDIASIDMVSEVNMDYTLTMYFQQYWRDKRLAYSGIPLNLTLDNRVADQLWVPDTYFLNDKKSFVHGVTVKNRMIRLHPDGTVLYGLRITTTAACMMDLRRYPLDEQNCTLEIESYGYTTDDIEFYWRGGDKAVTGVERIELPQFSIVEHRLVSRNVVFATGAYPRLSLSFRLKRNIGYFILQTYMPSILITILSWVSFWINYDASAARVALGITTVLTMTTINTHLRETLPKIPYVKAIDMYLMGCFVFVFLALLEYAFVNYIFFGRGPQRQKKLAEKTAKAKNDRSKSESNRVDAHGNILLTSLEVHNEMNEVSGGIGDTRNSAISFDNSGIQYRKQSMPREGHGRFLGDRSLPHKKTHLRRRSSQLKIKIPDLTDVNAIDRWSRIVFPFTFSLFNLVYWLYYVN
UniProt P18507, sequence (whole entry, looked up): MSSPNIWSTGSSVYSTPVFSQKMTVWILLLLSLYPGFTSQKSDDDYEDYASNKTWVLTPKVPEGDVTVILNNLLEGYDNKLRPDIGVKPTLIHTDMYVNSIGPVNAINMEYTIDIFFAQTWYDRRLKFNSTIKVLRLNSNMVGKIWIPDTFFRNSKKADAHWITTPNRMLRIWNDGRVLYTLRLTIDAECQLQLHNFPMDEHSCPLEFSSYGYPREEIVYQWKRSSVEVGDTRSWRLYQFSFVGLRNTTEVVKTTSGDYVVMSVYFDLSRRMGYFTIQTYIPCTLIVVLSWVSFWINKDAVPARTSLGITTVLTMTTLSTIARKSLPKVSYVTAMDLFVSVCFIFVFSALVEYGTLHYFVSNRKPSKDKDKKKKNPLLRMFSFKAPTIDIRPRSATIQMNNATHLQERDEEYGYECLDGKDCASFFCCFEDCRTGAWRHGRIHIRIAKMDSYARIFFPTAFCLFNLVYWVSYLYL
Sterol carrier protein 2: Sterol carrier protein 2 (Homo sapiens, UniProt P22307)
UniProt P22307, sequence (whole entry, looked up): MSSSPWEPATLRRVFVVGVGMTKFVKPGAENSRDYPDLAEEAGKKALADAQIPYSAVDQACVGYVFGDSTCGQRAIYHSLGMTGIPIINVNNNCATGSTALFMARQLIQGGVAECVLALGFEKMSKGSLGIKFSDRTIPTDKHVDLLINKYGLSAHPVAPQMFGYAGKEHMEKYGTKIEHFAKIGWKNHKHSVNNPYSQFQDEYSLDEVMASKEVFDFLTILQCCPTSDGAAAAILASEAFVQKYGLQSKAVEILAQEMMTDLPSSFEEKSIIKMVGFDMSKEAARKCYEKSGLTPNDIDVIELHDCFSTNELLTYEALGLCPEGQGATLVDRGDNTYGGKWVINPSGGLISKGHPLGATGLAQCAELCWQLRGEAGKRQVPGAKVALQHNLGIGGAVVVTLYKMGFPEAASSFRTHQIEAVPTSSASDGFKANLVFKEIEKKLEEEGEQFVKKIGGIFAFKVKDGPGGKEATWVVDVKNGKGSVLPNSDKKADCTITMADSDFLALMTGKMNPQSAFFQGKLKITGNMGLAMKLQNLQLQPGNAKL
GABRA1/GABRB3 L291T with gamma-2 subunit: GABA-A receptor alpha-1/beta-3, with gamma-2 subunit (GABRA1/GABRB3, Homo sapiens, UniProt P14867+P28472, L291T)
SLC6A4: Sodium-dependent serotonin transporter (SLC6A4, Homo sapiens, UniProt P31645)
GABA A receptor alpha-1/beta-1/gamma-2: GABA A receptor alpha-1/beta-1/gamma-2 (Homo sapiens, UniProt P14867+P18505+P18507)
UniProt P18505, sequence (whole entry, looked up): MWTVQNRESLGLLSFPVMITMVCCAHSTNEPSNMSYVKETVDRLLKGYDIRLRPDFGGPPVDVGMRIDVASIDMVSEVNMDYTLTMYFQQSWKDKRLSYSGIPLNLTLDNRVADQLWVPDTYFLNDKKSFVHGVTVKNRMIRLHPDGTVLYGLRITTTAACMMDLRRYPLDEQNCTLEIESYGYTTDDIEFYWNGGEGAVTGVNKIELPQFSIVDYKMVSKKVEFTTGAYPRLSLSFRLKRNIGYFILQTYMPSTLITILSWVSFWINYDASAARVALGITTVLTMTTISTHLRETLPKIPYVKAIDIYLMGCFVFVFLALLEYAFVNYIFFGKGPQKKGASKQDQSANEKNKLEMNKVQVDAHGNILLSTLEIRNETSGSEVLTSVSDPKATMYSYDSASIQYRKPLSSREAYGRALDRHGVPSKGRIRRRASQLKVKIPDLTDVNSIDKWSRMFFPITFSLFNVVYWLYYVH
UniProt P21554, sequence (whole entry, looked up): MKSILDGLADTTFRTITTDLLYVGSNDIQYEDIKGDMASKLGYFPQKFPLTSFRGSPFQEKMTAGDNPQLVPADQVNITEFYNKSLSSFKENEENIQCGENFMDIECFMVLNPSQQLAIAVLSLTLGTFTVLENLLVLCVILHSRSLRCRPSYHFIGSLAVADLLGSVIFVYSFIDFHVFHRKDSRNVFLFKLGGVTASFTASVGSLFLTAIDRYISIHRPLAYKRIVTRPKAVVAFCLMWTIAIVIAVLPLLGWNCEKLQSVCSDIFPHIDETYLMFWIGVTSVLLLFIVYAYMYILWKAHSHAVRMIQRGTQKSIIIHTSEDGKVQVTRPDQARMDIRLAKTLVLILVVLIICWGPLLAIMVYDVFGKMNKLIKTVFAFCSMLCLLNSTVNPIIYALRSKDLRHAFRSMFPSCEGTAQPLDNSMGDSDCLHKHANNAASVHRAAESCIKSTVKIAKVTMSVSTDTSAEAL
UniProt Q923Y8, sequence (whole entry, unmodified, looked up): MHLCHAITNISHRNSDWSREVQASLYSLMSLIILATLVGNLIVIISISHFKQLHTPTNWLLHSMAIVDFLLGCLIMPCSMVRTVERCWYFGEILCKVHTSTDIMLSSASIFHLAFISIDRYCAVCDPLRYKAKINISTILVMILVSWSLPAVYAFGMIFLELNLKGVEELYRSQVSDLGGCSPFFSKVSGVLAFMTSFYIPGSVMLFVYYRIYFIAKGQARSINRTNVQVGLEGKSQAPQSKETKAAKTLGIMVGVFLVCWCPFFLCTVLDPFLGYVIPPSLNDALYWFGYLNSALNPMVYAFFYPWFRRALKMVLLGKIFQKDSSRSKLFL
UniProt P28223, sequence (whole entry, looked up): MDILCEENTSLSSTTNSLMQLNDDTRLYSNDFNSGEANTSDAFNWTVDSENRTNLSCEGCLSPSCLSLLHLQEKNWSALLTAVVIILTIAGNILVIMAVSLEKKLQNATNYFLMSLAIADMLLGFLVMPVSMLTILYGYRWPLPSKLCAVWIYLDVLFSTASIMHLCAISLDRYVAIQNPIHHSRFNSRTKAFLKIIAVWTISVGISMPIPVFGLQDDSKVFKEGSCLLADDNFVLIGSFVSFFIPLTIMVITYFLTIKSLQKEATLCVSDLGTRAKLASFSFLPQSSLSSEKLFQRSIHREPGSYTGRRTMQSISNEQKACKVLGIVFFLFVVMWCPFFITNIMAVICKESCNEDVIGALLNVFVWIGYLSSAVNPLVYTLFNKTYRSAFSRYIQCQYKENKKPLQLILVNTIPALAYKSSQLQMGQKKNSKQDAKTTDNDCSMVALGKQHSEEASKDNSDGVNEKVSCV
UniProt P33533, sequence (whole entry, looked up): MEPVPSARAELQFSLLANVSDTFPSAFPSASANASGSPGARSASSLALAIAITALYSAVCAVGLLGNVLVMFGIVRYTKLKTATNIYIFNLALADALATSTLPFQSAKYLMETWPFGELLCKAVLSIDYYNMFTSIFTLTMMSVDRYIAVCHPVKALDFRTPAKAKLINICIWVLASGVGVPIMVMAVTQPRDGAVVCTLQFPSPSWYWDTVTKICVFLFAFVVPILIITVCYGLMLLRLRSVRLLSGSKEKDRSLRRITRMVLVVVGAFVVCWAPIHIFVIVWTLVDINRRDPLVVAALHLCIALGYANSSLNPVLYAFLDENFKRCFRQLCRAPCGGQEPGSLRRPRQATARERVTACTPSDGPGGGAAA

[123I]c1cncc(OC[C@@H]2CCN2)c1 — tissue/plasma ratio (SPECT; human, hippocampus; intravenous bolus, 2.1 mCi; reference: tissue over plasma): 14.6
CCOC(=O)c1cncn1C(C)c1cccc2ccccc12 (stereo not drawn) — EC50 (GABA-A receptor; alpha-1/beta-3/gamma-2; GABA current potentiation, positive allosteric modulator, two-electrode voltage clamp; Xenopus oocytes; with: GABA EC5): 38 µM
CCCCC/C=C\C/C=C\C/C=C\C/C=C\CCCC(=O)NCCO — EC50 (Sterol carrier protein 2; NBDS displacement, fluorescent probe displacement; 50% of maximum displacement, with: NBDS 500 nM): 1.54 ± 0.1 µM
CN1CC[C@]2(c3cccc(O)c3)Cc3nc4ccccc4cc3C[C@H]2C1 — EC50 (Delta-type opioid receptor (Oprd1, Rattus norvegicus, UniProt P33533); agonist; ethanol-trained rat, rat cerebral cortex membranes; with: yohimbine 2 mg/kg intraperitoneal): 21 ± 3.9 µM
CCOC(=O)c1cncn1C(C)c1cccc2ccccc12 (stereo not drawn) — EC50 (GABA-A receptor; alpha-1/beta-3/gamma-2; potentiation of GABA current, positive allosteric modulator, two-electrode voltage clamp; Xenopus oocytes; with: GABA EC5): 53 µM
COC(=O)CCOC(=O)c1cncn1[C@@H](c1ccccc1)C(C)C — EC50 (GABRA1/GABRB3 L291T with gamma-2 subunit; ion current, agonist, two-electrode voltage clamp; Xenopus oocytes; reference: 100 µM GABA): 46 ± 6 µM
C[C@]12C=CC3=C4CCC(=O)C=C4CCC3C1CC[C@@H]2O (stereo partly drawn) — EC50 (Androgen receptor (AR, Homo sapiens, UniProt P10275); reporter gene, agonist, luciferase): 0.001 µM
CP(=O)(O)CCC(N)C(=O)O (stereo not drawn) — herbicidal activity (Lolium perenne; 500 g/ha, 13 days, LOLPE, post-emergence spray; reference: untreated (0%), complete kill (100%)): 70%
COC(=O)C(C)(C)OC(=O)c1cncn1[C@H](C)c1ccccc1 — EC50 (GABRA1/GABRB3 L291T with gamma-2 subunit; ion current, agonist, two-electrode voltage clamp; Xenopus oocytes; reference: 100 µM GABA): 1.6 ± 0.4 µM
N=C(N)NCCC[C@@H]1NC(=O)[C@H](CCCCNC(=O)[C@H](CC(=O)O)NC(=O)[C@H](CC(=O)O)NC(=O)[C@H](CC(=O)O)NC(=O)CC[C@H](NC(=O)CCOCCOCCOCCOCCNC(=O)c2ccc(NN)nc2)C(=O)N[C@@H](CC(=O)O)C(=O)N[C@@H](CC(=O)O)C(=O)N[C@@H](CC(=O)O)C(=O)NCCCC[C@@H]2NC(=O)[C@@H](Cc3ccccc3)NC(=O)[C@H](CC(=O)O)NC(=O)CNC(=O)[C@H](CCCNC(=N)N)NC2=O)NC(=O)[C@@H](Cc2ccccc2)NC(=O)[C@H](CC(=O)O)NC(=O)CNC1=O [technetium-99m labelled] — tissue uptake (γ-counting; female athymic nude mice, U-87 MG xenograft, intestine; intravenous, 1 h): 7.08 ± 0.92 %ID/g
CN[C@@](C)(C[18F])C(=O)O — tracer uptake (SK-OV-3 tumour model; host not given, bone; 1 h, tumour-bearing): 2.3 %ID/g
CNC(C)C(=O)c1ccccc1 (stereo not drawn) — EC50 (SLC6A4; [3H]5-HT release, releaser; HEK293 expressing target): 54 ± 17 µM
CC(=O)[C@H]1CC[C@H]2[C@@H]3CC[C@H]4C[C@](C)(O)CC[C@]4(C)[C@H]3CC[C@]12C — EC50 (GABA A receptor alpha-1/beta-1/gamma-2; GABA current potentiation, positive modulator, two-electrode voltage clamp; Xenopus laevis oocytes; 30 s preincubation, with: GABA EC10): 0.13 ± 0.04 µM
CC/C=C\C/C=C\C/C=C\C/C=C\C/C=C\C/C=C\CCC(=O)NCCO — EC50 (Sterol carrier protein 2; NBDS displacement, fluorescent probe displacement; 50% of maximum displacement, with: NBDS 500 nM): 4.33 ± 0.1 µM
C=C1C[C@@H]2[C@H](CC[C@]3(C)C(=O)CC[C@@H]23)[C@@]2(C)C=CC(=O)C=C12 — median plasma concentration (LC-MS/MS; postmenopausal breast cancer women, plasma; oral, 25 mg/day, 2 h, no prior chemotherapy): 8.7 ng/mL
CC(C)c1ccc2c(c1)CC[C@H]1[C@](C)(CN)CCC[C@]21C — IC50 (WM35; cell growth or viability, MTS; 72 h): 2.99 µM
Cc1ncc2n1-c1ccc(Cl)cc1C(c1ccccc1F)=NC2 — Cmax geometric mean (healthy men, plasma; oral, 7.5 mg, without amenamevir): 34.5 ng/mL
CC(=O)N[C@H](CCCCNC(=O)C(C)F)C(=O)N[C@@H](CS)C(=O)N[C@@H](CS)C(=O)N[C@@H](CCC(=O)O)C(=O)N[C@@H](Cc1c[nH]cn1)C(=O)N[C@H](Cc1ccccc1)C(=O)N[C@@H](CCCNC(=N)N)C(=O)N[C@@H](Cc1c[nH]c2ccccc12)C(=O)N[C@@H](CS)C(=O)N[C@@H](CCCNC(=N)N)C(=O)N1CCC[C@H]1C(=O)N[C@H](C(N)=O)C(C)C (stereo partly drawn) [fluorine-18 labelled] — tissue uptake (C57BL/6 mice, male, B16-F10 tumour, intestine; intravenous, 1 h): 0.99 ± 0.45 %ID/g
COC(=O)[C@@H](C)COC(=O)c1cncn1[C@H](C)c1ccccc1 — EC50 (GABRA1/GABRB3 L291T with gamma-2 subunit; ion current, agonist, two-electrode voltage clamp; Xenopus oocytes; reference: 100 µM GABA): 11 ± 2 µM
c1ccc(CCN2CCCCC2)cc1 — Ki (NMDA receptor, rat; binding; rat brain; 60 min, 4 °C, with: [3H]TCP 5 nM): > 10 µM
CNC(C)Cc1ccc2c(c1)OCO2 (racemic) — subjective drug effect rating (Drug Effects Questionnaire, item: Dislike Drug; human; oral, 0.75 mg/kg, mean over session, unit not given; reference: pre-dose baseline): 12.8
CCCCC/C=C\C/C=C\C/C=C\C/C=C\CCCC(=O)NCCF — EC50 (Sterol carrier protein 2; NBDS displacement, fluorescent probe displacement; 50% of maximum displacement, with: NBDS 500 nM): 6.33 ± 0.48 µM
COc1ccc2[nH]cc(CCNC(C)C)c2c1 — EC50 (5-hydroxytryptamine receptor 2A (HTR2A, Homo sapiens, UniProt P28223); β-arrestin recruitment, agonist): 1.07 µM
COC(=O)C(C)(C)COC(=O)c1cncn1[C@H](C)c1ccccc1 — EC50 (GABRA1/GABRB3 L291T with gamma-2 subunit; ion current, agonist, two-electrode voltage clamp; Xenopus oocytes; reference: 100 µM GABA): 5.5 ± 0.6 µM
CCOC(=O)c1cncn1[C@H](C)c1ccc(F)cc1 — EC50 (GABA-A receptor; alpha-1/beta-3/gamma-2; potentiation of GABA current, positive allosteric modulator, two-electrode voltage clamp; Xenopus oocytes; with: GABA EC5): 1.6 µM
CCCC(NCC)C(=O)c1ccc2c(c1)OCO2 (stereo not drawn) — EC50 (SLC6A4; [3H]5-HT release, releaser; HEK293 expressing target): > 10 µM
C[C@H]1CNCCc2ccc(Cl)cc21 — plasma concentration (Sprague-Dawley rat, male, plasma; subcutaneous, 1 mg/kg, 180 min): 6.11 ± 0.48 ng/mL
C[C@@]1(O)CC[C@H]2[C@H](CC[C@@H]3[C@@H]2CC[C@]2(C)[C@@H](C(=O)Cn4cc(C#N)cn4)CC[C@@H]32)C1 — EC50 (GABA A receptor alpha-1/beta-1/gamma-2; GABA current potentiation, positive modulator, two-electrode voltage clamp; Xenopus laevis oocytes; 30 s preincubation, with: GABA EC10): 0.08 ± 0.02 µM
COC(=O)[C@H](C)OC(=O)c1cncn1[C@H](C)c1ccccc1 — EC50 (GABRA1/GABRB3 L291T with gamma-2 subunit; ion current, agonist, two-electrode voltage clamp; Xenopus oocytes; reference: 100 µM GABA): 9.4 ± 0.8 µM
CC(C)[C@H](NC(=O)c1nn(Cc2ccc(F)cc2)c2ccccc12)C(N)=O — EC50 (Cannabinoid receptor 1 (CNR1, Homo sapiens, UniProt P21554); GIRK channel fluorescence, agonist; AtT20 expressing CB1): 0.018 µM and 0.0181 µM
CC[C@H](C)[C@@H]1NC(=O)[C@H](CCCNC(=N)N)NC(=O)[C@H](CC(=O)O)NC(=O)[C@H](CC(C)C)NC(=O)[C@H](CCCCN)NC(=O)[C@H](CC(C)C)NC(=O)CNC(=O)[C@H](Cc2ccccc2)NC(=O)[C@@H](NC(=O)CNC(=O)[C@H](CCCCN)NC(=O)[C@H](CO)NC(=O)[C@H](CC(C)C)NC(=O)CNC(=O)[C@H](CCCCN)NC(=O)[C@H](CCCCN)NC(=O)[C@H](CC(N)=O)NC(=O)[C@H](C)NC(=O)CNC(=O)[C@H](CCCCN)NC(=O)[C@H](Cc2ccc(O)cc2)NC(=O)[C@H](CCCCN)NC(=O)[C@H](CCCNC(=N)N)NC(=O)[C@H](C)NC(=O)[C@H](CC(N)=O)NC(=O)[C@@H]2CCCN2C(=O)[C@H](Cc2c[nH]cn2)NC(=O)[C@H](CCC(=O)O)NC(=O)[C@H](CCC(N)=O)NC(=O)CNC(=O)[C@@H]2CCCN2)CSSC[C@@H](C(=O)O)NC(=O)CNC(=O)[C@H](CC(C)C)NC(=O)CNC(=O)[C@H](CO)NC(=O)[C@H](CCSC)NC(=O)[C@H](CO)NC(=O)CNC1=O — Emax (item: urine cGMP/creatinine; human patients with achondroplasia, urine; 15 µg/kg, Emax model vs AUC(0-60 min), Hill 1): 21900 pmol/mg creatinine
CCOC(=O)c1cncn1C(C)c1ccc2ccccc2c1 (stereo not drawn) — EC50 (GABA-A receptor; alpha-1/beta-3/gamma-2; potentiation of GABA current, positive allosteric modulator, two-electrode voltage clamp; Xenopus oocytes; with: GABA EC5): 19 µM
CCOC(=O)c1cccn1[C@H](C)c1ccccc1 — EC50 (GABRA1/GABRB3 L291T with gamma-2 subunit; ion current, agonist, two-electrode voltage clamp; Xenopus oocytes; reference: 100 µM GABA): 13.8 ± 0.9 µM
NCCc1ccc(Oc2ccc(O)cc2)c(I)c1 — EC50 (Trace amine-associated receptor 1 (Taar1, Mus musculus, UniProt Q923Y8, Y153F); cAMP accumulation, agonist, cell-based; TM4 mutant): 0.067 ± 0.017 µM
CC(=O)[C@H]1CC[C@H]2[C@@H]3CC[C@H]4C[C@H](O)CC[C@]4(C)[C@H]3CC[C@]12C — EC50 (GABA A receptor alpha-1/beta-1/gamma-2; GABA current potentiation, positive modulator, two-electrode voltage clamp; Xenopus laevis oocytes; 30 s preincubation, with: GABA EC10): 0.09 ± 0.02 µM
CCN(CC)CCc1c[nH]c2ccc(OC)cc12 — EC50 (5-hydroxytryptamine receptor 1A (HTR1A, Homo sapiens, UniProt P08908); calcium signal, agonist): 0.911 µM

Some of these lines once more:
N=C(N)NCCC[C@@H]1NC(=O)[C@H](CCCCNC(=O)[C@H](CC(=O)O)NC(=O)[C@H](CC(=O)O)NC(=O)[C@H](CC(=O)O)NC(=O)CC[C@H](NC(=O)CCOCCOCCOCCOCCNC(=O)c2ccc(NN)nc2)C(=O)N[C@@H](CC(=O)O)C(=O)N[C@@H](CC(=O)O)C(=O)N[C@@H](CC(=O)O)C(=O)NCCCC[C@@H]2NC(=O)[C@@H](Cc3ccccc3)NC(=O)[C@H](CC(=O)O)NC(=O)CNC(=O)[C@H](CCCNC(=N)N)NC2=O)NC(=O)[C@@H](Cc2ccccc2)NC(=O)[C@H](CC(=O)O)NC(=O)CNC1=O [technetium-99m labelled] — tissue uptake (γ-counting; female athymic nude mice, U-87 MG xenograft, intestine; intravenous, 1 h): 7.08 ± 0.92 %ID/g
CN[C@@](C)(C[18F])C(=O)O — tracer uptake (SK-OV-3 tumour model; host not given, bone; 1 h, tumour-bearing): 2.3 %ID/g
